Results from different studies.
Several values in a cell are separate wells, animals, samples, runs or records. Numbers after ± are the reported error. Values after ≈ are worked out from the molar mass of the structure shown.

COC(=O)C1CN1S(=O)(=O)c1ccc(C)cc1 (centres unmarked) — tumour growth inhibition (mouse Lewis lung carcinoma; intraperitoneal, 100 mg/kg, day 13): 66%
O=C(O)c1ccc(-c2nc(-c3ccccc3Cl)c3sccn23)cc1 — reticulated platelets (C57BL/6 mice, 5-fluorouracil treated; dose not given, day 17): 12.4% and 17.1% and 12.2% and 17.4%
CC[C@H](C)[C@@H]([C@@H](CC(=O)N1CCC[C@H]1[C@H](OC)[C@@H](C)C(=O)N[C@H](C)[C@@H](O)c1ccccc1)OC)N(C)C(=O)[C@@H](NC(=O)[C@H](C(C)C)N(C)C(=O)OCc1ccc(NC(=O)[C@H](CCCNC(N)=O)NC(=O)[C@@H](NC(=O)CCCCCN2C(=O)CC(SC[C@H](NC(=O)[C@H](CC(=O)O)NC(=O)[C@H](Cc3ccc(O)cc3)NC(=O)[C@H](Cc3c[nH]c4ccccc34)NC(=O)[C@@H](N)CCCNC(=N)N)C(=O)O)C2=O)C(C)C)cc1)C(C)C (some centres unmarked) — tumour weight (C57BL/6 mouse, subcutaneous Lewis lung carcinoma; dose not given, end of study): decreased
Cc1cc(O)cc(C)c1C[C@H](N)C(=O)N[C@H](CCCNC(=N)N)C(=O)N[C@@H](Cc1ccccc1)C(=O)N[C@@H](CCCCN)C(=O)NCCCCCCNC(=O)[C@H](Cc1ccccc1)NC(=O)[C@H](CC1CCCCC1)NC[C@@H]1Cc2ccccc2CN1C(=O)[C@@H](N)Cc1ccc(O)cc1 — IC50 (agonist; guinea pig ileum): 0.261 ± 0.033 µM
CC[C@H](C)[C@H](NC(=O)[C@H](CCCNC(=N)N)NC(=O)[C@H](CCCNC(=N)N)NC(=O)[C@H](CC(C)C)NC(=O)[C@H](Cc1ccccc1)NC(=O)CNC(=O)CNC(=O)[C@@H](N)Cc1ccc(O)cc1)C(=O)N[C@@H](CCCNC(=N)N)C(=O)O — IC50 ([3H]deltorphin II uptake, inhibitor; rabbit, cells; 15 min, NaCl-containing medium): 7.8 ± 1 µM
N#CC(=Cc1ccccc1)n1cccn1 — β-elimination rate constant (pH 7.4): 0.0002 min⁻¹
COc1ccc(CC2[NH2+]CCc3cc(OC)c(OC)cc32)cc1OC.[Cl][Fe-]([Cl])([Cl])[Cl] (centres unmarked) — DPPH scavenging (1.0 mg/mL, 30 min, 25 °C): 33.9%
COc1ccccc1-c1n[nH]c2nc(N[C@H]3CC[C@H](NS(=O)(=O)CC(C)C)CC3)ncc12 — relative abundance (bead binding, competition bead pull-down, measured: LINJ.30.2930; Leishmania donovani extract; 10 µM; baseline: vehicle): 0.48
Cc1ccc(C2=CC(C)(C)Oc3ccc(-c4ccc(-c5ccc(C(=O)O)cc5)[nH]4)cc32)cc1 — cauda epididymal sperm count (CD1 mouse, male; 10 mg/kg, 4 week after end of treatment, dosed for 4 weeks): 19.5 and 35.5 and 55 and 37.5 and 30
CCCCCC1=C(NCC)C(=O)C(C/C=C(\C)CCC=C(C)C)=C(O)C1=O — normalised enrichment score (RNA-seq GSEA, measured: HALLMARK_INTERFERON_ALPHA_RESPONSE; mouse, A53T α-synuclein lesioned, striatum; dose not given; baseline: untreated A53T lesioned mice, direction not given): 3.27
CC[C@H](C)[C@H](NC(=O)[C@H](CC(C)C)NC(=O)[C@H](CC(=O)O)NC(=O)[C@H](CCCNC(=N)N)NC(=O)[C@H](Cc1c[nH]c2ccccc12)NC(=O)[C@@H](N)CC(C)C)C(=O)N[C@@H](CS)C(=O)N[C@@H](CC(C)C)C(=O)N[C@@H](CS)C(=O)N[C@@H](CCCNC(=N)N)C(=O)N[C@@H](CC(N)=O)C(=O)N[C@@H](CCCNC(=N)N)C(=O)N[C@@H](CCCNC(=N)N)C(=O)N[C@@H](CS)C(=O)N[C@@H](CC(N)=O)C(=O)N[C@@H](CCCNC(=N)N)C(=O)NCC(=O)N[C@@H](CCC(N)=O)C(=O)N[C@@H](CC(C)C)C(=O)N[C@@H](Cc1ccccc1)C(=O)N1CCC[C@H]1C(=O)NCC(=O)N[C@@H](Cc1c[nH]c2ccccc12)C(=O)N[C@@H](CS)C(=O)N1CCC[C@H]1C(=O)NCC(=O)N[C@@H](Cc1c[nH]c2ccccc12)C(=O)N[C@@H](Cc1c[nH]c2ccccc12)C(=O)N[C@@H](CC(C)C)C(=O)N[C@@H](CCCNC(=N)N)C(=O)N[C@@H](CS)C(=O)N[C@@H](CS)C(=O)N[C@@H](CCCNC(=N)N)C(=O)N[C@@H](CCCNC(=N)N)C(N)=O — spleen index (female C57BL/6J mice, DSS colitis; oral, 5 mg/kg, 7 days): 3.67 ± 0.5 mg/g
CCN(Cc1ccccc1)C(=O)CCc1nc(CN2CCN(C(=O)Cc3ccc(OC)c(OC)c3)CC2)no1 — beam crossing time (beam walking test; mouse, CCI neuropathic pain model; 5 mg/kg): 6.95 ± 0.27 s
CCCC[C@@H]1NC(=O)[C@H](Cc2ccc(O)cc2)NC(=O)[C@@H]2CCCN2C(=O)[C@H](CC(=O)O)NC(=O)[C@H](C)NC(=O)[C@H](Cc2ccccc2)NC(=O)[C@@H]2CSCCC(=O)N3CN(CN(C3)C(=O)CCSC[C@@H](C(=O)N[C@@H](C)C(N)=O)NC1=O)C(=O)CCSC[C@H](NC(C)=O)C(=O)N[C@@H](CC(C)(C)C)C(=O)N1CCC[C@H]1C(=O)N[C@@H](CCC(=O)O)C(=O)N[C@H](CCCCNC(=O)CCc1cn(CCOCCOCCOCCN(CCOCCOCCOCCC(=O)N[C@H]3CSCCC(=O)N4CN5CN(C4)C(=O)CCSC[C@H](NC(=O)[C@@H](CC(=O)O)NC(=O)[C@H](Cc4cccc6ccccc46)NC(=O)[C@@H]4CCCN4C3=O)C(=O)N[C@@H](CCSC)C(=O)N[C@@H](CCCCNC(=N)N)C(=O)N[C@@H](CC(=O)O)C(=O)N[C@@H](Cc3c[nH]c4ccccc34)C(=O)N[C@@H](CO)C(=O)N[C@@H]([C@@H](C)O)C(=O)N3CCC[C@H]3C(=O)N3C[C@H](O)C[C@H]3C(=O)N[C@@H](Cc3c[nH]c4ccccc34)C(=O)N[C@H](C(N)=O)CSCCC5=O)CCOCCOCCOCCn3cc(CCC(=O)NCCCC[C@H]4NC(=O)[C@H](CCC(=O)O)NC(=O)[C@@H]5CCCN5C(=O)[C@H](CC(C)(C)C)NC(=O)[C@@H](NC(C)=O)CSCCC(=O)N5CN6CN(C5)C(=O)CCSC[C@H](NC(=O)[C@H](Cc5ccc(O)cc5)NC(=O)[C@@H]5CCCN5C4=O)C(=O)N[C@@H](Cc4ccccc4)C(=O)N[C@@H](C)C(=O)N[C@@H](CC(=O)O)C(=O)N4CCC[C@H]4C(=O)N[C@@H](Cc4ccc(O)cc4)C(=O)N[C@@H](CCCC)C(=O)N[C@H](C(=O)N[C@@H](C)C(N)=O)CSCCC6=O)nn3)nn1)C(=O)N1CCC[C@H]1C(=O)N[C@@H](Cc1ccc(O)cc1)C(=O)N2 — mRNA level (NanoString, measured: Trem2-mRNA; mouse bearing MC38-Nectin-4 tumour, circulating white blood cells; 5 mg/kg, 24 h after dosing, unit not given; baseline: vehicle): 0.323
Cc1n[nH]c(C)c1CCCOc1cc(C(=O)NCCCCC(NC(=O)CN2CCN(CC(=O)[O-])CCN(CC(=O)[O-])CCN(CC(=O)[O-])CC2)C(=O)NCC2CCC(C(=O)NC(Cc3ccc4ccccc4c3)C(=O)NCCCCC(NC(=O)NC(CCC(=O)O)C(=O)O)C(=O)O)CC2)ccc1F.[177Lu+3] (centres unmarked) — tumour growth inhibition (mouse 22Rv1 xenograft; intravenous, 14.8 MBq): 88.4%
CC[C@H](C)[C@H](NC(=O)[C@H](CCCNC(=N)N)NC(=O)[C@H](CO)NC(=O)[C@H](Cc1ccc(O)cc1)NC(=O)[C@@H](NC(=O)[C@@H](NC(=O)[C@H](C)NC(=O)CNC(=O)[C@H](CCCCN)NC(=O)[C@H](CCCCN)NC(=O)CCNC(=O)CCCCCNC(=O)[C@H](CCCNC(=N)N)NC(=O)CCCCCNC(=O)[C@H](CCCNC(=N)N)NC(=O)[C@H](CCCNC(=N)N)NC(=O)CCCCCNC(=O)[C@H](CCCNC(=N)N)NC(=O)[C@H](CCCNC(=N)N)NC(=O)CCCCCNC(=O)[C@H](CCCNC(=N)N)NC(=O)[C@H](CCCNC(=N)N)NC(=O)CCCCCNC(=O)[C@@H](N)CCCNC(=N)N)C(C)C)[C@@H](C)O)C(=O)N[C@@H](CO)C(=O)NCC(=O)N[C@@H](CCC(N)=O)C(=O)N[C@@H](Cc1ccc(O)cc1)C(=O)N[C@@H](CCCCN)C(=O)O — MIC (broth microdilution; ATCC 43300 resistant strain, Mueller-Hinton broth): 12 µM (≈ 42.9 µg/mL)
COc1ccccc1-c1n[nH]c2nc(NC3CCN(C(=O)Cc4ccc(F)cc4F)CC3)ncc12 — relative abundance (bead binding, competition bead pull-down, measured: LMJF.07.0340; Leishmania donovani axenic amastigote extract; 10 µM; baseline: vehicle): 0.91
CC(C)NCCCn1c(Sc2cc3c(cc2I)OCO3)nc2c(N)ncnc21 — dose needed for tumour concentration (human patients; dose not given, target 5 µM intratumoral): > 180 mg/m²
